Assay results from different studies.
Every numbered part comes from another study and shows a few of its results, in no order.

Sample 1
Target: RNA binding protein fox-1 homolog 2, RRM domain, GST-SBP tag (RBFOX2, Homo sapiens, UniProt O43251-10, residues 100-194)
Method: RNA Bind-n-Seq
Molecule type: RNA
Matrix: in vitro
Tested at: 365 nM
Setting: natural RNA segment, single round, ends assumed
Relative to: no-protein control
Direction: higher = stronger binding
Target sequence (chain): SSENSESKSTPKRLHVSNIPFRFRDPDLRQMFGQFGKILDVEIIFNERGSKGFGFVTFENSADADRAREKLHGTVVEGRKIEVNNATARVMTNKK
For `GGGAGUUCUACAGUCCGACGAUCUGUUUUGAAUCUUUGUAAAAAUUGAUAUUCUGUAUAACAGAGUGCCUCUCUGUUACUUUUGGCCUAUGUUGUUAGAAAUAAGAUGCUAUCUUGCAUAGUUAGAAUUAAGCUGGAAUUCUCGGGUGCCAA`, “RBNS enrichment (R)” read 0.507.
`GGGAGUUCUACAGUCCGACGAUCCACUGACAGUUUGCUCACAGGUUAUGUUUGAAUGUCUUAUGGAAGCAGACGUUAUUUUCCGUGAUUCUUAGGACUACCUGUCUGUCACGAAUCUGCCCACGGUAGUCAGGUGGAAUUCUCGGGUGCCAA` — result for “RBNS enrichment (R)”: 2.7.
Under “RBNS enrichment (R)”, `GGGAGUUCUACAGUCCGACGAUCCUUCUUUUUAAUGGUAAAUAUUCUUGUUCUUCAACAUUUUUCUUUGGUUCUUUUUUCCUUUUUUAGGAAAAACAAAACAACAGACUUCAUCCUUAGGUUUUCUCAAGAUUUGGAAUUCUCGGGUGCCAA` is recorded as 0.642.
`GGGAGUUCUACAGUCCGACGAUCCUGUUCUUGUAGAUCUAGCUCCUCAGAGUUGGAGGAAGGCUGACAGAGAAGGUCUCCUCUGUGCUCCAUCCACACAGGAUGCCGGAGAGACAGCCCCUUGUGCUGUGAGCUGGAAUUCUCGGGUGCCAA` — result for “RBNS enrichment (R)”: 0.325.
Under “RBNS enrichment (R)”, `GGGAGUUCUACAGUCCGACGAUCCACAAUAGGAAACACCACUUCCACAAGUCUCAAGCCUCAGUGCUAAAGUACUACUGAAAAGGAACUAGGAAGUUUGGCCAAUUAAAAAAAAAAAGUAAAAUAAGUUAUAGUGGAAUUCUCGGGUGCCAA` is recorded as 0.543.
Under “RBNS enrichment (R)”, `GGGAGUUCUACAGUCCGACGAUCCUUUCUCUCCAAUAAUGUUGCAACUCACCAAAACUAUUCUUGAAGAGGUCCAAGAACAUGUAUUAUCCAGACUAAAAAAAUGAUUUUUUGUUGUUAUGGUUUACGUGAUGUGGAAUUCUCGGGUGCCAA` is recorded as 0.452.
For `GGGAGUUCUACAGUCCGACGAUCGUGUCUGUUUUGUUUUGUUUGUUUCGUUUUUAUUUUUCAGUUAAAGCACGCACAGACAUACAUGUCGAGAGCGGACUUUAGGCUUUCAUGUGUUAAACCGCUUGAGUUACUGGAAUUCUCGGGUGCCAA`, “RBNS enrichment (R)” read 1.54.
`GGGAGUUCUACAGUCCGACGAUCUCUCUGCUUGAACACAGUAUUCUCCCAGUCCACACCCAUUGCCAGUGUCUUUCUUUGGUGCCUUUCCUGUUCAGCAUUCUCAGCCUGUGGCAGUAAAGAGAAACUUUGCUUGGAAUUCUCGGGUGCCAA`: “RBNS enrichment (R)” 1.37.

Sample 2
Target: Fragile X messenger ribonucleoprotein 1, C-terminal low-complexity region (Fmr1, Mus musculus, UniProt P35922)
Method: RNA Bind-n-Seq
Molecule type: RNA
Matrix: in vitro
Tested at: 200 nM
Setting: whole 134-nt RNA, ends assumed
Added: 150 mM KCl
Relative to: input library
Direction: higher = stronger binding
`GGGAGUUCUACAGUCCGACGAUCCUGAAGAGUCUGAGGAUGCCCAAUCACAGAGCCAAGCAGAUGAAGAGGAGGAAGAUGAUGAUUUUGGGGUGGAGUACUUGCUUGCCAGGGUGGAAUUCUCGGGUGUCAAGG` has a log2 enrichment of -0.0635.
`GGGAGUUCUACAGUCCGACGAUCAAGUCCUGUGCUACACAUCGUAUGUACCGAAUCGGGAAAAAAAGGGAAAGGGUGGGAAAGUAUUAUGUUACGCCGUUCGGAUCUGCACUUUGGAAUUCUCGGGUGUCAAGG` gave a log2 enrichment of 0.733.
With `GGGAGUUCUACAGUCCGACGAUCAGAUGAACAAGAGAACUGGGCAACCCAUGAUCCACAUCUACCUGGACAAGGAAACAGGAAAGCCCAAAGGCGAUGCCACAGUGUCCUAUGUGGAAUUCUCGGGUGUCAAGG` the log2 enrichment was -1.22.
The log2 enrichment of `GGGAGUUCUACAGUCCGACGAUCAGUCCUGUGCUACACAUCGUAUGUACCGAAUCGGGAAAGGGUUUGGGAAAAAAAGGGAAAGUAUUAUGUUACGCCGUUCGGAUCUGCACUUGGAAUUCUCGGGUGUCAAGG` is reported as -0.285.
For `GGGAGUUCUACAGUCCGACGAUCGGGCCCUGGUGGCAUGCGGGGAGGAAGAGGUGGCCUCAUGGAUCGUGGUGGUCCCGGUGGAAUGUUCAGAGGUGGCCGUGGUGGAGACAGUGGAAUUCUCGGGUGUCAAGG`, the log2 enrichment was 0.266.
For `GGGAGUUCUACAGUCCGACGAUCCAAGUCCUGUGCUACACAUCGUAUGUACCGAAUCGGGUUUGGGUUUGGUUUGGGGAAAGUAUUAUGUUACGCCGUUCGGAUCUGCACUUCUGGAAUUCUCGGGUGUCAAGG`, the log2 enrichment was 0.47.
`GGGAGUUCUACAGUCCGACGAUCUAACUUUAGAGGAGGAUCUGAUGGAUAUGGCAGUGGACGUGGAUUUGGGGAUGGCUAUAAUGGGUAUCGAGGAGGACCUGGAGGUGGCAAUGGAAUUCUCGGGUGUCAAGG` gave a log2 enrichment of 0.172.
For `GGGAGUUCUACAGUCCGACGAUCGUCCUGUGCUACACAUCGUAUGUACCGAAUCGGUUUUUUGGGUUUUUUGGGUUUUUUGGAAAGUAUUAUGUUACGCCGUUCGGAUCUGCAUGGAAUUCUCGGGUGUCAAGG`, the log2 enrichment was -0.525.
`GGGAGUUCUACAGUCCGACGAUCAAGUCCUGUGCUACACAUCGUAUGUACCGAAUCGGGAAAAGGGGAAAAGGGAAAAGGAAAGUAUUAUGUUACGCCGUUCGGAUCUGCACUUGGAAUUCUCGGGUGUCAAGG` has a log2 enrichment of -0.244.

Sample 3
Target: Histone acetyltransferase KAT6A, winged helix 2, GST fusion (KAT6A, Homo sapiens, UniProt Q92794, residues 85-181)
Method: protein binding microarray
Molecule type: double-stranded DNA, one strand shown
Matrix: in vitro
Tested at: not given
Setting: 8-mer, flanks averaged, mean of 2 arrays, mostly near background
Relative to: not given
Direction: higher = stronger binding
Residues (chain): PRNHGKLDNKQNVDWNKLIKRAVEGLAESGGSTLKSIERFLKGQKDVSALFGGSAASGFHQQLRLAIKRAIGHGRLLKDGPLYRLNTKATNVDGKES
For `CGTGGAGC`, the E-score was 0.098.
The E-score of `AATGGAAA` is reported as -0.0669.
The E-score of `CATATACC` is reported as -0.133.
`AGCGAGCA` has an E-score of 0.0794.
`AGTAGCAA` gave an E-score of 0.176.
With `AGAGTCTC` the E-score was -0.203.
With `AAATAGAC` the E-score was 0.0374.
For `CGTGGACC`, the E-score was -0.0264.
`AGCATGAC` has an E-score of 0.0485.
`CAAGAGGG` has an E-score of -0.00562.
With `ACCGGCCC` the E-score was 0.151.

Mixed results
`PhoQ, residues 284 288 289 292 302 303 SACGEM` has a fold induction of 2.59 (PhoP, residues 12 14 15 18 19 LQHIR (Escherichia coli, UniProt P23836); Sort-seq, item: YFP reporter; E. coli; PhoQ-PhoP variant library, added: 10 µM Mg2+; relative to: high Mg2+ state, higher = stronger signaling).
